Published values pooled from the literature.
Protocols differ between the studies behind these lines.

C=CC(=O)Nc1cccc(Cn2ncc3cnc(Nc4cnn(CCOC)c4)nc32)c1  percent of control (ABL2 human; binding, KINOMEscan; 100 nM; lower = stronger binding): 15%
CC1C=CC=CC(C)C2C=CC3CC(C)(O)C(Cl)C(C)C3C2C(=O)C(Cl)(Cl)C(=O)C(C)C(=O)O1 (stereo not shown)  MIC (Staphylococcus aureus; MSSA clinical isolate; PEN ERY TET resistant): 0.1 µg/mL
Cc1ncsc1-c1ccc(C(C)NC(=O)C2CC(O)CN2C(=O)C(NC(=O)CCCCCCCCCCN2CCCC(Nc3ncc(Cl)c(Nc4ccccc4S(=O)(=O)C(C)C)n3)C2)C(C)(C)C)cc1 (stereo not shown)  log2 fold change (22Rv1; RNA-seq, measured: PPARGC1B mRNA; concentration not given; reference: DMSO): -1.32
C[C@@H]1C(=O)O[C@@H](C)/C=C/C=C\[C@@H](C)[C@@H]2C=C[C@@H]3C[C@@]4(C)O[C@H]4[C@@H](C)[C@H]3[C@@H]2C(=O)C(Cl)(Cl)C1=O  MIC (Staphylococcus aureus; MRSA clinical isolate; resistant, OXA, CIP, MXF, ERY, CLI, DAP, VAN): 0.05 µg/mL
C=C(NC(=O)c1csc(-c2nc3c(cc2O)-c2nc(cs2)C(=O)NC(C(C)O)C(=O)NC(=C(C)OC)c2nc(cs2)C(=O)NC2c4nc(cs4)C(=O)NC(COC(=O)c4c5c6c(cccc6n4O)COC(=O)C(OC4CC(C)(O)C(N(C)C)C(C)O4)C2OC5)c2nc-3cs2)n1)C(N)=O (stereo not shown)  MIC (Streptococcus pneumoniae; microbial growth, agar dilution; ATCC49619): 0.0078 µg/mL
Cc1c(CN(C)C(=O)/C=C/c2cnc3c(c2)CC(N)C(=O)N3)oc2ccccc12 (stereo not shown)  MIC (Acinetobacter baumannii; broth microdilution; AR-0299): 32 µg/mL
COC1CN([C@H]2CC[C@H]([C@@]3(C)Oc4c(Cl)cc(C(=O)NCc5c(SC)cc(C)[nH]c5=O)c(C)c4O3)CC2)C1  log2 fold change (RNA-seq, measured: EPB41L5 mouse homolog; mouse, HT-1376 xenograft, whole blood; dose not given; reference: vehicle): 4.34
CCCCCCCCn1cc[n+](CCCCCCOc2cc(OCCCCCC[n+]3ccn(CCCCCCCC)c3)cc(OCCCCCC[n+]3ccn(CCCCCCCC)c3)c2)c1.[Br-].[Br-].[Br-]  MIC (Enterococcus faecalis; OG1RF): 1 µM
Nc1ncc(-c2cc(-c3cnn(CC(F)(F)F)c3)ncc2F)nc1C(=O)NC1CNCC(F)C1 (stereo not shown)  remaining binding (MAP4K3; KINOMEscan; 1 µM; reference: DMSO control): 58%
CCCCCCCC[N+](C)(C)CCCCCCCCOc1cc(OCCCCCCCC[N+](C)(C)CCCCCCCC)cc(OCCCCCCCC[N+](C)(C)CCCCCCCC)c1.[Br-].[Br-].[Br-]  MIC (Enterococcus faecalis; OG1RF): 1 µM
C=C[C@]1(C)C[C@@H](OC(=O)CSc2ccc(NC(=O)c3ccco3)cc2)[C@]2(C)[C@H](C)CC[C@]3(CCC(=O)[C@H]32)[C@@H](C)[C@@H]1O  MIC (Mycoplasma gallisepticum; chicken lung isolates; 20 mg/kg to chickens): 0.00195 µg/mL
CCCCCC[N+](C)(C)CCCCCCOc1cc(OCCCCCC[N+](C)(C)CCCCCC)cc(OCCCCCC[N+](C)(C)CCCCCC)c1.[Br-].[Br-].[Br-]  MIC (Enterococcus faecalis; OG1RF): 4 µM
CCCC(C)Oc1cccc(NC(=O)c2cccnc2)c1 (stereo not shown)  MIC (Pichia kudriavzevii; microbial growth, broth dilution; ATCC6258): 128 µg/mL

Some of these lines once more:
C=C[C@]1(C)C[C@@H](OC(=O)CSc2ccc(NC(=O)c3ccco3)cc2)[C@]2(C)[C@H](C)CC[C@]3(CCC(=O)[C@H]32)[C@@H](C)[C@@H]1O  MIC (Mycoplasma gallisepticum; chicken lung isolates; 20 mg/kg to chickens): 0.00195 µg/mL
CCCCCC[N+](C)(C)CCCCCCOc1cc(OCCCCCC[N+](C)(C)CCCCCC)cc(OCCCCCC[N+](C)(C)CCCCCC)c1.[Br-].[Br-].[Br-]  MIC (Enterococcus faecalis; OG1RF): 4 µM
